Assay results from different studies.
A part holds a random share of what one study measured.

Sample 1
Target: Interferon regulatory factor 3, full length, phosphomimetic (IRF3, Homo sapiens, UniProt Q14653, residues 1-427, S386D/S396D/S398D/S402D/T404D/S405D)
Technique: protein-binding microarray
Molecule type: double-stranded DNA, one strand shown
Matrix: in vitro
Tested at: 2540 nM top
Notes: 60-bp whole probe
Added: salmon DNA 0.4 mg/ml
Relative to: random background probes
Direction: higher = stronger binding
Constant ends, left off below: GCCTAGCAC … GTCTTGATTCGCTTGACGCTGCTG
Residues (chain): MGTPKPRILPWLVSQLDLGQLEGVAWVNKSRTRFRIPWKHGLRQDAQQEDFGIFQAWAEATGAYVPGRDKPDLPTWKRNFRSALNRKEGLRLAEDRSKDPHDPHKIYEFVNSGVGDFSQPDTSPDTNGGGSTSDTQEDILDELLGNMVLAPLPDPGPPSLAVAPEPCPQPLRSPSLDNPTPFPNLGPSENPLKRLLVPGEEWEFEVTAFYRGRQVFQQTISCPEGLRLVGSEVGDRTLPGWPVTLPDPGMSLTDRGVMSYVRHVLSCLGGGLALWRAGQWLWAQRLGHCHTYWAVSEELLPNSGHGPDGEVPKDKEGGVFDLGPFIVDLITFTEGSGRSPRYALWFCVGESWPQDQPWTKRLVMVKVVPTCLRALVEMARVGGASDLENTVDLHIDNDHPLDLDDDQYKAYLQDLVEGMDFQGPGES
For `GCTTCCTCCTACCCGACCCCGTGCTAG`, “fitted relative affinity” read 0.692 z-score.
`TCATTTTTAGATATCTTACTGTGCTAG` — result for “fitted relative affinity”: 1.67 z-score.
For `TTAGGCCTGGGTATCGGTTAGTGCTAG`, “fitted relative affinity” read 0.0256 z-score.
`TTAGGTATCGGTTTCGTTTAGTGCTAG` — result for “fitted relative affinity”: 7.78 z-score.
`TCATTTCTACTTCTCTTACTGTGCTAG` — result for “fitted relative affinity”: 2.85 z-score.
`GACGGACTGCACACTGGGGACGTGCTA`: “fitted relative affinity” -0.516 z-score.

Sample 2
Target: Sal-like protein 4, full length isoform A (SALL4, Homo sapiens, UniProt Q9UJQ4, residues 1-1053)
Sequence of UniProt Q9UJQ4 (whole entry, looked up): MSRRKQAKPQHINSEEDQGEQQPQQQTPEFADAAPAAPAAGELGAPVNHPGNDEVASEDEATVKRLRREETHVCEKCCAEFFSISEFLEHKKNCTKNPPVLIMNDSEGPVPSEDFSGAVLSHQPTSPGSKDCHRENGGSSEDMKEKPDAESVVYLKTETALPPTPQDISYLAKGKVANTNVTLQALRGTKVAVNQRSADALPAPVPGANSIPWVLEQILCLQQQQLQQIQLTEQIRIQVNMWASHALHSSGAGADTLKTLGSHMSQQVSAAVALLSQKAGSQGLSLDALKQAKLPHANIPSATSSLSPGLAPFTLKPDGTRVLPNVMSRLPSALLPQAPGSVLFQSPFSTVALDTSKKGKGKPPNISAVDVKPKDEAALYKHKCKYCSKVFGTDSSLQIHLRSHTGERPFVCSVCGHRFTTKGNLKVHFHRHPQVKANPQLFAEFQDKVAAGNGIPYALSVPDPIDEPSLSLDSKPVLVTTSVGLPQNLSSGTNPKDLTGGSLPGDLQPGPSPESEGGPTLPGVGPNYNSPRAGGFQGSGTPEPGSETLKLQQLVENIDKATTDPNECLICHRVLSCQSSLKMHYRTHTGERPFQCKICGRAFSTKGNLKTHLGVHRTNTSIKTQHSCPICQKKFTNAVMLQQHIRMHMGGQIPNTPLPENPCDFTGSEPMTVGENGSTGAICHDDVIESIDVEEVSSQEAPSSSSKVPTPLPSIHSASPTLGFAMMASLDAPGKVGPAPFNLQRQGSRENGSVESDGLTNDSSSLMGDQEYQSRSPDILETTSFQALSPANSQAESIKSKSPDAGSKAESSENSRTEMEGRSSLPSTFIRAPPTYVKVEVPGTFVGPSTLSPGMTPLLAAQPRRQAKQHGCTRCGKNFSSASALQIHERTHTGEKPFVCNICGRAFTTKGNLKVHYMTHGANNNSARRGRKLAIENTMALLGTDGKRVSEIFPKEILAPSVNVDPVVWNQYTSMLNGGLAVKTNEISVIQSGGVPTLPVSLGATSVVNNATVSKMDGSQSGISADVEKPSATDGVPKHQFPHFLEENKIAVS
Technique: universal PBM
Molecule type: double-stranded DNA, one strand shown
Matrix: in vitro
Tested at: 600 nM
Notes: 8-mer, flanks averaged, mean of replicates
Direction: higher = stronger binding
The E-score of `AAACCTAT` is reported as 0.223.
The E-score of `GATGTTGA` is reported as -0.0135.
`GTTCCTCA` gave an E-score of -0.0481.
The E-score of `GTTATTGA` is reported as 0.294.
For `AGCCGGCA`, the E-score was -0.294.
The E-score of `GCGTTTCA` is reported as -0.00913.

Sample 3
Target: RNA binding protein fox-1 homolog 2, RRM domain, GST-SBP tag (RBFOX2, Homo sapiens, UniProt O43251-10, residues 100-194)
Technique: RNA Bind-n-Seq
Molecule type: RNA
Matrix: in vitro
Tested at: 365 nM
Notes: natural RNA segment, single round, ends assumed
Relative to: no-protein control
Direction: higher = stronger binding
Construct (chain): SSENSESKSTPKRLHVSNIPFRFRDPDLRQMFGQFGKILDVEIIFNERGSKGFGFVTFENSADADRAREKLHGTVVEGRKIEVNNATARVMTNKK
Under “RBNS enrichment (R)”, `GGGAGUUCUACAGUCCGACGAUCGAACUUGGAUUCCCCUGGGUAGAUGGAAACUGCAAAAACCCAAAGCCUCCAAAACUAACCAGGUCCACCUAACACCCCCUCCCUCCCCUAAGAAGAUGGAUGUCCUCAAAUGGAAUUCUCGGGUGCCAA` is recorded as 0.456.
`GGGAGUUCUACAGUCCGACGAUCGCUAAGCUUGGCCCUCACCAGCCAGCUUCACUGGAGCACCCAGAACACUUAGCUGGCCACCGCUUUAAUCUGGCCCCUUUGGGAAAGCGAAAAUCCCGAUCACAUUGGACUGGAAUUCUCGGGUGCCAA`: “RBNS enrichment (R)” 0.326.
`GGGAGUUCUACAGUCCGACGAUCUGGAGGAAGGAAGGCUAAGAACUGUCCUUGAGGAACUUCAUCAGUAACUCUGGUAAAGCAUCCUGUGGAGGGAGAGGAGAGCCCAGUCAUUUGCUUAGAUGGUGUUUGUGUGGAAUUCUCGGGUGCCAA`: “RBNS enrichment (R)” 0.722.
For `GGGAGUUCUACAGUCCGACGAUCUGUGUACAAUCUUGGGCACUGAUUCCAUCAGUAGUAUCUUGUACCAUCCAAGGAGAGGGCCAGGAAAACAUCCACCAUCAAAUGGUUUUCCAGCUCCCUCAUCUCUUCAAUGGAAUUCUCGGGUGCCAA`, “RBNS enrichment (R)” read 0.274.
`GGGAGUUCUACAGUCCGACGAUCCCACUGCUCCCACCAGCGUACGGAUUAAGUUCAUCAGGCUUCCAUCGGCUGGAGCAUGGGACCAUAGCCCCUGCCCAGGAGCCGUACCCUCGGACCACAGUGGCUCUGUAUGGAAUUCUCGGGUGCCAA` — result for “RBNS enrichment (R)”: 0.27.
Under “RBNS enrichment (R)”, `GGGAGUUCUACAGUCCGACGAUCUCAGACACCCUUUGCCUGGAAGCCCACUUGUGUUGCUGCUGUGUUGUGUAUAUAGUAUUCUCGAGAUGAGCGUAUGUGUGUCUGUUUAAAAGUCACCUUGUUUCCUACAUUGGAAUUCUCGGGUGCCAA` is recorded as 5.06.

Other studies, line by line
For `PhoQ, residues 284 288 289 292 302 303 GLASVI`, the fold induction was 24.3 (PhoP, residues 12 14 15 18 19 HHYTI (Escherichia coli, UniProt P23836); Sort-seq, measured: YFP reporter; E. coli; PhoQ-PhoP variant library, added: 10 µM Mg2+; relative to: high Mg2+ state, higher = stronger signaling).

Some of these lines once more (sample 1):
`TCATTTCTACTTCTCTTACTGTGCTAG` — result for “fitted relative affinity”: 2.85 z-score.
`GACGGACTGCACACTGGGGACGTGCTA`: “fitted relative affinity” -0.516 z-score.
